Measurements from different studies.
± gives the spread as reported. Square brackets hold non-standard residues; d marks the D form. Ends that are not written are not given here. No end group written: not given here.
GNAI1: GNAI1 (Homo sapiens, UniProt P63096)
Sequence of UniProt P63096 (whole entry, looked up): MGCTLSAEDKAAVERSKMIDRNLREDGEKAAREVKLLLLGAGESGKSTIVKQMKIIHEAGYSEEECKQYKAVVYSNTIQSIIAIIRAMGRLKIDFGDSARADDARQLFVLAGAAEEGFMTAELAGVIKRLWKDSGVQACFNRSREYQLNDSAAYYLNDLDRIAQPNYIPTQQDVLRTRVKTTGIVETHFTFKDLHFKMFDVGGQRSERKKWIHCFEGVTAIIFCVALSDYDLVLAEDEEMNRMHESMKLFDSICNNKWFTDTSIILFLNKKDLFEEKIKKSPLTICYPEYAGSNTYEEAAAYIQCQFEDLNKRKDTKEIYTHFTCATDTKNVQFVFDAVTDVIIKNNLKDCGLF
B1: LiaR (Enterococcus faecium); chain MIKVLLVDDHEMVRLGVSSYLSIQEDIEVIGEAENGRQGYEKAMALRPDVILMDLVMEEMDGIESTKAILKDWPKAKIIIVTSFIDDEKVYPAIEAGAAGYLLKTSTAHEIADAIRATQRGERVLEPEVTTKMMEKMSRRNDPVLHEELTNRENEILMLISEGKSNQEIADELFITLKTVKTHVSNILAKLEVEDRTQAAIYAFKHGLVK
Sequence of UniProt P24158 (whole entry, looked up): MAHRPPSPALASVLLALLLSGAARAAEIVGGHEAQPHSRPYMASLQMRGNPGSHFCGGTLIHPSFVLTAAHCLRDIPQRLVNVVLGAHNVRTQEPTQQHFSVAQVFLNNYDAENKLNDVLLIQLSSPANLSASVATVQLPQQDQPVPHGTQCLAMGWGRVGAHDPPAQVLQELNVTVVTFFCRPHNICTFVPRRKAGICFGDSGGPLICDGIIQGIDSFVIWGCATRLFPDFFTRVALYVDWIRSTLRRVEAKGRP
Sequence of UniProt Q6Q546 (whole entry, looked up): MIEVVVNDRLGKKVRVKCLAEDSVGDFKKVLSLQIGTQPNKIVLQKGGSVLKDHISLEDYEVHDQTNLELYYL
Sequence of UniProt P10415 (whole entry, looked up): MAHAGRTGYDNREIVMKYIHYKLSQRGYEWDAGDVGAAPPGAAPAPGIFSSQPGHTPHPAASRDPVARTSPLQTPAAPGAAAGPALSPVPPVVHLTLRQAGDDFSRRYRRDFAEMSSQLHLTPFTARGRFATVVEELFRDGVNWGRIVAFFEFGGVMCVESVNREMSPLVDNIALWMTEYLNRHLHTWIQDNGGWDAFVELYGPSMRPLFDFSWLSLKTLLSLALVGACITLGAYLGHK
Sequence of UniProt O15392 (whole entry, looked up): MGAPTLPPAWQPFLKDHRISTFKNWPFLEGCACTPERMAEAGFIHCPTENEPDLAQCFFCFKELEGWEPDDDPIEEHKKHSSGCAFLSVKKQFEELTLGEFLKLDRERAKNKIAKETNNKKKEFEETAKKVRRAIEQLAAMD
Sequence of UniProt P00772 (whole entry, looked up): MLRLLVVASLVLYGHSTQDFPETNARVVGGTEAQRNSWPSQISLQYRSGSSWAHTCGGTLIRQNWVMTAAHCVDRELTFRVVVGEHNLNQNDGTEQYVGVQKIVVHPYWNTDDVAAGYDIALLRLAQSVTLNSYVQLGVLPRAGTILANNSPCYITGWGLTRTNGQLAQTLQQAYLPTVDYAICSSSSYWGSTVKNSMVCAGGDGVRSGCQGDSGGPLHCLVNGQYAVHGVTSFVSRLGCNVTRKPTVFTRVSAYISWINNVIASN
Sequence of UniProt P35222 (whole entry, looked up): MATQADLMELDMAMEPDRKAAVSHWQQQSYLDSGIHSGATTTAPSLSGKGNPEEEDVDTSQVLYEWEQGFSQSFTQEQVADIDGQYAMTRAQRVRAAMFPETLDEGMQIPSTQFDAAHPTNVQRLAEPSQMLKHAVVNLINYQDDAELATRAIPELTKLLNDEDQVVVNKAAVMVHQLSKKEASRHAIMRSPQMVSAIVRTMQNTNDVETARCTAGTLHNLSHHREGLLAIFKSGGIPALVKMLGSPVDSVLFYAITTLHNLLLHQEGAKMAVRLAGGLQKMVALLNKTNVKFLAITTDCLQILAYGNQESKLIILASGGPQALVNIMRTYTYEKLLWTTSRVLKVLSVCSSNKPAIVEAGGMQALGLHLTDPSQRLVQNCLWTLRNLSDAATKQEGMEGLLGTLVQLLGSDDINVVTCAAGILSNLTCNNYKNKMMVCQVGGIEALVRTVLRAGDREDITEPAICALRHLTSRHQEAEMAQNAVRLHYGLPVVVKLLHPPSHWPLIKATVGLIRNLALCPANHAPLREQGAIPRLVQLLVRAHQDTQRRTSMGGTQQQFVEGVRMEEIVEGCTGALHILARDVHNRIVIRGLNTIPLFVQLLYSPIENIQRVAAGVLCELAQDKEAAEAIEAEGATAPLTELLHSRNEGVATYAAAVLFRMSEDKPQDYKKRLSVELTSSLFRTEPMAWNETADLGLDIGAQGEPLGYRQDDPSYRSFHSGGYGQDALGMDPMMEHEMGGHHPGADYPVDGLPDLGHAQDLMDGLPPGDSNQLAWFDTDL

Molecule	target or system	assay	system	conditions	scale	quantity	value
AALEAKICHQIEYYFGDF (La peptide 11-28 (UniProt P05455); FITC label; sequence looked up)	SSB Y23Q (Homo sapiens, UniProt P05455)	SEC	peptide	2 h, pH 7.5, 37 °C, with: FITC-LAP 28 µM		binding	binds
B1 (LiaR)	liaS 81-355 (Enterococcus faecium, UniProt A0A1B1EYN7)	MST		phosphorylated, with: ATP 0.2 mM		Kd	102000 ± 1200 nM
BILF1 K122A (Epstein-Barr virus)	GNAI1	IP3 accumulation	HEK293		relative to: wild-type BILF1, higher = more signaling	relative Gi signaling	16%
GLSQEQLEHRERSLQTLRDIQRMLFP-NH2 (BCL9 350-375 (Homo sapiens); C-terminal amide)	CTNNB1 (Homo sapiens, UniProt P35222)	AlphaScreen or HTRF	peptide			Kd	230 nM
NSRQTDR			peptide, human polyclonal IgM RF WEAK	concentration not given, 5 µg/mL mAb II-481 coated, with: RF at 50% max binding concentration		inhibition	0%
VLRKTAHVNILLFMG (BRAF 504-518 R509A)	BRAF kinase domain with dimer interface	fluorescence titration	peptide			Kd	2400 ± 350 nM
denileukin diftitox DT /IL-2 (Homo sapiens)	COPA/COPB1/COPB2/COPG1/COPE/COPZ1/ARCN1 (Bos taurus)	leucine incorporation	HuT102	endogenous COPI		cytotoxicity	10 pM
RmS-6, glycosylated (Rhipicephalus microplus)	PRTN3 (Homo sapiens, UniProt P24158)	chromogenic substrate hydrolysis, inhibitor		1 µM		protease inhibition	< 20%
LRKTRHVNILLFMG (BRAF 505-518)	BRAF kinase domain with dimer interface	fluorescence titration	peptide			Kd	190 ± 130 nM
LSIEETNEIREKLGMKPI (SNU66 HIND-I peptide (Saccharomyces cerevisiae))	HUB1 1-73 (Saccharomyces cerevisiae, UniProt Q6Q546)	ITC	peptide			Kd	1690 ± 270 nM
GVLRKTRHANILLFMGYST (BRAF 503-521 V511A)	BRAF kinase domain with dimer interface	fluorescence titration	peptide			Kd	4750 ± 1700 nM
BILF1 F286A/H288A (Epstein-Barr virus)	GNAI1	IP3 accumulation	HEK293		relative to: wild-type BILF1, higher = more signaling	relative Gi signaling	87.1%
echistatin	ITGAV/ITGB3 whole, on cells (Homo sapiens)	radioligand binding				IC50	3.3 nM
STKKLSECLKRIGDELDSNMELQR (Bax BH3 peptide BH3 domain)	BCL2 1-211 (Homo sapiens, UniProt P10415)	ITC	peptide	14 °C, single-site model		Kd	23600 nM
AR[pT]KQTARKSTG (H3C1 1-12; pT3; pT = C[C@@H](OP(=O)(O)O)[C@H](N)C(=O)O)	BIRC5 1-142 (Homo sapiens, UniProt O15392)	ITC	peptide	pH 7.6, 25 °C		Kd	6290 ± 310 nM
RmS-17, glycosylated (Rhipicephalus microplus)	CELA1 (Sus scrofa, UniProt P00772)	chromogenic substrate hydrolysis, inhibitor		1 µM		protease inhibition	< 20%
GVLRKARHVNILLFMGYST (BRAF residues 503-521 T508A)	BRAF kinase domain with dimer interface	ITC	peptide			ΔH	-8.32 kcal/mol
melittin		isothermal titration calorimetry	POPC/POPG LUVs 90:10%	100 µM, pH 7.0, 60 °C		partitioning enthalpy	-12.5 kcal/mol

Some of these lines once more:
Molecule	target or system	assay	system	conditions	scale	quantity	value
echistatin	ITGAV/ITGB3 whole, on cells (Homo sapiens)	radioligand binding				IC50	3.3 nM
RmS-6, glycosylated (Rhipicephalus microplus)	PRTN3 (Homo sapiens, UniProt P24158)	chromogenic substrate hydrolysis, inhibitor		1 µM		protease inhibition	< 20%
LRKTRHVNILLFMG (BRAF 505-518)	BRAF kinase domain with dimer interface	fluorescence titration	peptide			Kd	190 ± 130 nM
